{"data": "Published values collected from several papers", "note": "A part holds a random share of what one study measured.", "sequence of UniProt P10721 (whole entry, looked up)": "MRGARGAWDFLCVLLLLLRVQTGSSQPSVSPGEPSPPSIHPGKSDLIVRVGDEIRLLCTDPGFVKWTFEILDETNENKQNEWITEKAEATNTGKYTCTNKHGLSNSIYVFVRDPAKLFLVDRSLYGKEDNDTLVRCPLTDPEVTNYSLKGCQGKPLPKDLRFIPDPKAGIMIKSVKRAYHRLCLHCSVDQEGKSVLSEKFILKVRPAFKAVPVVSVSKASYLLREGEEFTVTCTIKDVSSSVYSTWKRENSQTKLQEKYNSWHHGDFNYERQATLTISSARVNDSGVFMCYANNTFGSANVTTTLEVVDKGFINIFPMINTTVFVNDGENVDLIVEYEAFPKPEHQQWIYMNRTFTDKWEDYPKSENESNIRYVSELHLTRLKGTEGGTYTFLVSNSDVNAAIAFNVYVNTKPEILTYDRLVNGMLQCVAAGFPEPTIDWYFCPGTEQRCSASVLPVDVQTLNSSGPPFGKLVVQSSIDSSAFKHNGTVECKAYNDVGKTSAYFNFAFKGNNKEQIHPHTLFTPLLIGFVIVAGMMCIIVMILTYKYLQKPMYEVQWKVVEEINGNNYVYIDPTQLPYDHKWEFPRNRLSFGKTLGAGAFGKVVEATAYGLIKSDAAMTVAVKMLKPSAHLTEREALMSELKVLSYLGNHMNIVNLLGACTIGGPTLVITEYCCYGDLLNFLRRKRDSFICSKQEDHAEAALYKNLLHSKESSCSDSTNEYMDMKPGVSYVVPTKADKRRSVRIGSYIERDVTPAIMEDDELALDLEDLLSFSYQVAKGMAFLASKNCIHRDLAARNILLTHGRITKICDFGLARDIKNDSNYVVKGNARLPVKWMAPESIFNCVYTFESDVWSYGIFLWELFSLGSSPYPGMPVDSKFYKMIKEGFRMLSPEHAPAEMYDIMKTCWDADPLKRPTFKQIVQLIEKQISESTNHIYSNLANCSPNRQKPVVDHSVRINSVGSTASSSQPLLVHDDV", "sequence of UniProt P0C264 (whole entry, looked up)": "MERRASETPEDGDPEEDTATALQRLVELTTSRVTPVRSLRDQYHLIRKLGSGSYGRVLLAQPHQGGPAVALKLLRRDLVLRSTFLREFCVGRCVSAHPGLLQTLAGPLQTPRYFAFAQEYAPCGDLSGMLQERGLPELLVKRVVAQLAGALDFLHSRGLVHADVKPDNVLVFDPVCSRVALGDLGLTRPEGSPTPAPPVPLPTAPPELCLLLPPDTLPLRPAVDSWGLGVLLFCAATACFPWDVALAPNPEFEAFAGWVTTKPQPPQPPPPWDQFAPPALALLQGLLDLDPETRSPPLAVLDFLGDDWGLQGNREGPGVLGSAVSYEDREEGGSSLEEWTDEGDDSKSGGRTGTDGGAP", "sequence of UniProt Q9C098 (whole entry, looked up)": "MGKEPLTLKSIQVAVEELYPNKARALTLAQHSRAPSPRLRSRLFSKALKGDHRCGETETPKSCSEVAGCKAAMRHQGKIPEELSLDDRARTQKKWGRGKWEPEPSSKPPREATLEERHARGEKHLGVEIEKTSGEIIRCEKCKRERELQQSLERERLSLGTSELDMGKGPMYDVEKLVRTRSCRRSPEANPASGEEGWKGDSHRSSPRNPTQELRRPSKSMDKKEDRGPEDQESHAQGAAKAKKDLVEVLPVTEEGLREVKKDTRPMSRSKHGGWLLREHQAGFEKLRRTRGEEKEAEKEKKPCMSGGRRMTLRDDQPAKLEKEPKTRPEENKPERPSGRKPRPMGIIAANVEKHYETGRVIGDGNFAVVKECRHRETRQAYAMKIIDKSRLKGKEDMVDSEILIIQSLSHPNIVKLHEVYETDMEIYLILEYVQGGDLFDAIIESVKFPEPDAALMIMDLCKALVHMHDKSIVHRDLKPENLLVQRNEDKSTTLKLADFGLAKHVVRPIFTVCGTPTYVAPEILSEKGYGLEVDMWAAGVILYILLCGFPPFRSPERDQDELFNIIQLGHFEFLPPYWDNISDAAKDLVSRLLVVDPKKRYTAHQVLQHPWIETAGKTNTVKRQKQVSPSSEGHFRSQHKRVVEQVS", "sequence of UniProt P42681 (whole entry, looked up)": "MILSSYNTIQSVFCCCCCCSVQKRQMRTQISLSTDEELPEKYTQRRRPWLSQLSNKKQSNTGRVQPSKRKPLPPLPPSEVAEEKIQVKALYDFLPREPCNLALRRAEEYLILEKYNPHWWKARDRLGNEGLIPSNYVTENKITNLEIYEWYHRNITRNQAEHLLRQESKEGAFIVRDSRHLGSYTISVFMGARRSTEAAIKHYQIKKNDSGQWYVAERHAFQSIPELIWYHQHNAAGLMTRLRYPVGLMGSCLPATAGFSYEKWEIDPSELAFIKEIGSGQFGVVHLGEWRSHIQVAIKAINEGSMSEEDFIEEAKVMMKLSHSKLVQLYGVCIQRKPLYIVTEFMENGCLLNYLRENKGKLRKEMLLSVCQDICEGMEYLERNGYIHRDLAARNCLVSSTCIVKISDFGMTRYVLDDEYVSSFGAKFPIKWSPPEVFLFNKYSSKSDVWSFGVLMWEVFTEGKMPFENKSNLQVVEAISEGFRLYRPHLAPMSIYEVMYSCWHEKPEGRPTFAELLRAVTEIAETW", "sequence of UniProt O23661 (whole entry, looked up)": "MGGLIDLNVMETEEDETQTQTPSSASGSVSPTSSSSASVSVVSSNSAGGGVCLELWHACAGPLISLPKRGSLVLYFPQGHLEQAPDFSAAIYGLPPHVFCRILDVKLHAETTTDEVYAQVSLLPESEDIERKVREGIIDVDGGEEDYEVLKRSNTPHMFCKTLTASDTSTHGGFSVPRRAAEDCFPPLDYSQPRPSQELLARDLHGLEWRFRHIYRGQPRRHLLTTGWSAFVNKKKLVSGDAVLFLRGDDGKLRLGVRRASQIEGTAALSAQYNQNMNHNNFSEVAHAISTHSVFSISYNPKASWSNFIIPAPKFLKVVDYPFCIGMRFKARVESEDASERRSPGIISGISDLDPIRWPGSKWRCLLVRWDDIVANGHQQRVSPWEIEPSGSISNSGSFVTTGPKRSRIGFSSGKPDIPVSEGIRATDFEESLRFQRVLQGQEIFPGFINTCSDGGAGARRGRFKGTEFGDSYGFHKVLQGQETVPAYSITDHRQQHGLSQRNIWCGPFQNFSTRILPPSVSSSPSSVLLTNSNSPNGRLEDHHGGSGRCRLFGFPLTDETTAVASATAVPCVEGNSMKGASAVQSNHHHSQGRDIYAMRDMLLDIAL", "sequence of UniProt O76039 (whole entry, looked up)": "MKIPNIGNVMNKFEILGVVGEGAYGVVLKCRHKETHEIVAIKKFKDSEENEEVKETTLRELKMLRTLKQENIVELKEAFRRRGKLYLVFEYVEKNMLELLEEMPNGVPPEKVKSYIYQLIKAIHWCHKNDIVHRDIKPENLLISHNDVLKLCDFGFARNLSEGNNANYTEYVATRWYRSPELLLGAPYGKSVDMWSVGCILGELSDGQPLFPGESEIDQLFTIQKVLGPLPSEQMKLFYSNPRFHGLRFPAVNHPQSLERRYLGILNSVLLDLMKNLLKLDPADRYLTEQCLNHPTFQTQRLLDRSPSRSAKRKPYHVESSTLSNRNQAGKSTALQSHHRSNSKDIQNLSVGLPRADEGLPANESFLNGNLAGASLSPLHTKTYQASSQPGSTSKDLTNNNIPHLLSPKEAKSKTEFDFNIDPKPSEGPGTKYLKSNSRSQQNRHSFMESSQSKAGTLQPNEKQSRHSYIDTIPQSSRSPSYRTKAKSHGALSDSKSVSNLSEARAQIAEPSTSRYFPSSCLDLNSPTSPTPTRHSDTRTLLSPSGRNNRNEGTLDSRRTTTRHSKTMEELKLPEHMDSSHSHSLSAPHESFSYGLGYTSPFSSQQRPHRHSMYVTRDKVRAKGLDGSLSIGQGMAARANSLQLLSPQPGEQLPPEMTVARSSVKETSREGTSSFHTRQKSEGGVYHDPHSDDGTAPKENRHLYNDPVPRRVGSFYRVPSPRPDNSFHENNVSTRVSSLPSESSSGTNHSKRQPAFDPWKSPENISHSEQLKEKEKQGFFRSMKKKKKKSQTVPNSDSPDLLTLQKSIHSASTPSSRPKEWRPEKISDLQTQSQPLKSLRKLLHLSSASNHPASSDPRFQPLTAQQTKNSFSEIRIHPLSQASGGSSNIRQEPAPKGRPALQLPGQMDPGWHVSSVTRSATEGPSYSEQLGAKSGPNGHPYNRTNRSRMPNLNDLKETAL", "sequence of UniProt P48729 (whole entry, looked up)": "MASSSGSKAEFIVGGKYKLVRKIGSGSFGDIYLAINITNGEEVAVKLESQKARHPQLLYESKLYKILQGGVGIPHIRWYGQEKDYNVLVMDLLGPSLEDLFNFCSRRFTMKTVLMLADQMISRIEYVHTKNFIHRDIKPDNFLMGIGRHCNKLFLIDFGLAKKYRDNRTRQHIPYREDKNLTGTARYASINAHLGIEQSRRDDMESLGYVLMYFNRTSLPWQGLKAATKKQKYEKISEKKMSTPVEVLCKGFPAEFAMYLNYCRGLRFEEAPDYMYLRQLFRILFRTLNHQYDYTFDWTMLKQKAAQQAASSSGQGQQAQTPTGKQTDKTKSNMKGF"}
{"data": "Block 1", "target": "Prothrombin, mature alpha-thrombin (F2, Homo sapiens, UniProt P00734)", "method": "aptamer microarray, sandwich", "molecule type": "DNA with 2'F-ANA", "medium": "in vitro", "tested at": "200 nM", "setting": "whole 15-mer aptamer, many near background", "together with": "Cy3 exosite-II aptamer, 400 nM", "reading": "higher = stronger binding", "strand": "GGTTGGTGTGGTTGG"}
{"Modification": "2'F-ANA at 1 2 3 4 6 7 10 11 13", "mean fluorescence intensity [a.u.]": 54}
{"Modification": "2'F-ANA at 1 2 5 7 8 9 11", "mean fluorescence intensity [a.u.]": 55.5}
{"Modification": "2'F-ANA at 1 3 6 7 10 12 13", "mean fluorescence intensity [a.u.]": 98.4}
{"Modification": "2'F-ANA at 1 7 8 9 12 14 15", "mean fluorescence intensity [a.u.]": 85.9}
{"Modification": "2'F-ANA at 3 4 7 8 10 12", "mean fluorescence intensity [a.u.]": 455}
{"Modification": "2'F-ANA at 1 3 4 8 9 10 11 14 15", "mean fluorescence intensity [a.u.]": 51.7}
{"Modification": "2'F-ANA at 2 6 8 9 13", "mean fluorescence intensity [a.u.]": 328}
{"Modification": "2'F-ANA at 1 2 3 7 9 13 15", "mean fluorescence intensity [a.u.]": 181}
{"data": "Block 2", "target": "Tyrosine-protein kinase CSK (CSK, Homo sapiens, UniProt P41240)", "observed": "enzyme activity", "mode": "inhibitor", "tested at": "0.5 µM", "baseline": "control", "sequence of UniProt P41240 (whole entry, looked up)": "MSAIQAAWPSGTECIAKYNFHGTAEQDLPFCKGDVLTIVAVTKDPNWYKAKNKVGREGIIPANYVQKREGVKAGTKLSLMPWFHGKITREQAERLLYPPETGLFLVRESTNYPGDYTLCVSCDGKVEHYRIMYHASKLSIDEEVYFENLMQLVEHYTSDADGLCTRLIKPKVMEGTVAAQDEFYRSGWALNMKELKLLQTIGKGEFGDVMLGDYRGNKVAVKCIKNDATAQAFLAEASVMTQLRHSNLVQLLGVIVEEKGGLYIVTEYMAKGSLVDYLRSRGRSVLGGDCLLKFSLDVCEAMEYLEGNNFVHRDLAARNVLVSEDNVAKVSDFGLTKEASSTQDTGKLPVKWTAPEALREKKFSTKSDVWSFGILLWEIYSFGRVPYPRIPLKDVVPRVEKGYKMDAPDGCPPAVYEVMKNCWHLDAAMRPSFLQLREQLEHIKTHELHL"}
{"Compound": "COc1ccc(C(=O)Nc2sc3c(c2C(N)=O)CCCC3)cc1OC", "remaining activity [%]": 98.8}
{"Compound": "COc1cc2ncnc(Nc3ccc(Oc4ccccc4)cc3)c2cc1OC", "remaining activity [%]": 18.8}
{"Compound": "O=C(Nc1cccc(Nc2cc(Nc3cccc(C(F)(F)F)c3)ncn2)c1)C1CC1", "remaining activity [%]": 102}
{"Compound": "CN(C)c1ccc(C=C2C(=O)Nc3ccccc32)cc1", "remaining activity [%]": 96.9}
{"Compound": "Cc1cccc(-c2[nH]c(C(C)(C)C)nc2-c2ccc3c(c2)OCO3)n1", "remaining activity [%]": 102}
{"Compound": "O=C1NC(=O)C(c2cn(CCCn3ccnc3)c3ccccc23)=C1Nc1ccccc1", "remaining activity [%]": 110}
{"Compound": "O=C(O)c1ccc2c3c1cccc3c(=O)n1c3ccccc3nc21", "remaining activity [%]": 101}
{"Compound": "Cc1nc(-c2ccccc2)c(-c2ccncc2)o1", "remaining activity [%]": 106}
{"Compound": "NCCNc1ncc(C(N)=O)c(Nc2cccc(C(F)(F)F)c2)n1", "remaining activity [%]": 92.8}
{"Compound": "CO[C@H]1C[C@@H]2CC[C@@H](C)[C@@](O)(O2)C(=O)C(=O)N2CCCC[C@H]2C(=O)O[C@H]([C@H](C)C[C@@H]2CC[C@@H](O)[C@H](OC)C2)CC(=O)[C@H](C)/C=C(\\C)[C@@H](O)[C@@H](OC)C(=O)[C@H](C)C[C@H](C)/C=C/C=C/C=C/1C", "remaining activity [%]": 101}
{"Compound": "Nc1[nH]nc2nc3ccccc3nc12", "remaining activity [%]": 100}
{"Compound": "O=S(=O)(c1cccc2cnccc12)N1CCCNCC1", "remaining activity [%]": 87.9}
{"Compound": "CNC(=O)c1cc(Oc2ccc(NC(=O)Nc3ccc(Cl)c(C(F)(F)F)c3)cc2)ccn1", "remaining activity [%]": 90.3}
{"data": "Block 3", "Compound": "O=C(Nc1cccnn1)N1CCC(=Cc2cccc(Oc3ccc(C(F)(F)F)cn3)c2)CC1", "observed": "cell-free assay", "method": "competition with immobilised ligand", "tested at": "1 µM"}
{"target": "TXK (Homo sapiens, UniProt P42681)", "remaining binding": "100%"}
{"target": "EGFR (Homo sapiens, UniProt P00533, G719S)", "remaining binding": "99%"}
{"target": "CSNK1A1 (Homo sapiens, UniProt P48729)", "remaining binding": "100%"}
{"target": "CDKL5 (Homo sapiens, UniProt O76039)", "remaining binding": "100%"}
{"target": "DCLK3 (Homo sapiens, UniProt Q9C098)", "remaining binding": "85%"}
{"target": "KIT (Homo sapiens, UniProt P10721)", "remaining binding": "81%"}
{"target": "SBK3 (Homo sapiens, UniProt P0C264)", "remaining binding": "100%"}
{"data": "Further values, each from its own experiment", "B1": "ARF2 727-859 (Arabidopsis thaliana, UniProt Q94JM3); chain TKTNSSRSCTKVHKQGIALGRSVDLSKFQNYEELVAELDRLFEFNGELMAPKKDWLIVYTDEENDMMLVGDDPWQEFCCMVRKIFIYTKEEVRKMNPGTLSCRSEEEAVVGEGSDAKDAKSASNPSLSSAGNS"}
{"Molecule": "B1 (ARF2 727-859)", "partner": "ETT (Arabidopsis thaliana, UniProt O23661)", "test": "two-hybrid", "scale": "baseline: out of 4 tests, higher = firmer interaction", "endpoint": "positive tests", "value": 0}
{"note": "Some of these lines once more (block 2):"}
{"Compound": "NCCNc1ncc(C(N)=O)c(Nc2cccc(C(F)(F)F)c2)n1", "remaining activity [%]": 92.8}
{"Compound": "CO[C@H]1C[C@@H]2CC[C@@H](C)[C@@](O)(O2)C(=O)C(=O)N2CCCC[C@H]2C(=O)O[C@H]([C@H](C)C[C@@H]2CC[C@@H](O)[C@H](OC)C2)CC(=O)[C@H](C)/C=C(\\C)[C@@H](O)[C@@H](OC)C(=O)[C@H](C)C[C@H](C)/C=C/C=C/C=C/1C", "remaining activity [%]": 101}
